# Assay results from different studies.
# Numbered parts are unrelated; each lists some results of a single study. Several values in a cell are separate wells, animals, samples, runs or records.
# Sequence of UniProt P42338 (whole entry, looked up): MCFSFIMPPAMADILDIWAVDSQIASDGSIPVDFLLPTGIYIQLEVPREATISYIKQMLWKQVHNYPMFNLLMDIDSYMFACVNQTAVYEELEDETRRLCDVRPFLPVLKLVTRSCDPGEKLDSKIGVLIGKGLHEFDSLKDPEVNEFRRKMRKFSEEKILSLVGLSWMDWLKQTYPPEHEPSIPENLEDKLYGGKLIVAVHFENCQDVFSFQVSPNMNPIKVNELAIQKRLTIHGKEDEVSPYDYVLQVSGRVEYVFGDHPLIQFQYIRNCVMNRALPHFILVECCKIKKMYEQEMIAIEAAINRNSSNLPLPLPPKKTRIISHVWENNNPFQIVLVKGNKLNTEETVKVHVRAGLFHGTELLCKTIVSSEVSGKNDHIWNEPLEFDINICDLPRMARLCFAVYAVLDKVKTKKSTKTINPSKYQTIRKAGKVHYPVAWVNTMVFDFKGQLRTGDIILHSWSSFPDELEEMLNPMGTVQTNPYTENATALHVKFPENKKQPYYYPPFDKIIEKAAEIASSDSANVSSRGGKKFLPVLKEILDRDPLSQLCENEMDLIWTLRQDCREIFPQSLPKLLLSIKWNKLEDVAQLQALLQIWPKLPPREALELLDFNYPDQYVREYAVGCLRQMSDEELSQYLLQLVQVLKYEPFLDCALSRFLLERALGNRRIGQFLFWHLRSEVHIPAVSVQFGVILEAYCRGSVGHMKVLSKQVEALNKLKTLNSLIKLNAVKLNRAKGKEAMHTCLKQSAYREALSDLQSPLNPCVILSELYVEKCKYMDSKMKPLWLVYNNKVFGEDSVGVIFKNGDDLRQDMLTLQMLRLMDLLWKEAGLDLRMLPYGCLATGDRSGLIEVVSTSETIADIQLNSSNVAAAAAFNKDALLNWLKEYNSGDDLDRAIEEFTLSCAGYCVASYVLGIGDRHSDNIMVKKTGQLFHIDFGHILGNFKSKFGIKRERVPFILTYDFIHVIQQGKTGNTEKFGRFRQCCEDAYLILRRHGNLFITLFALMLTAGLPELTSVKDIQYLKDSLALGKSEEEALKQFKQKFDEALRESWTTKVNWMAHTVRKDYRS
# Sequence of UniProt P21127 (whole entry, looked up): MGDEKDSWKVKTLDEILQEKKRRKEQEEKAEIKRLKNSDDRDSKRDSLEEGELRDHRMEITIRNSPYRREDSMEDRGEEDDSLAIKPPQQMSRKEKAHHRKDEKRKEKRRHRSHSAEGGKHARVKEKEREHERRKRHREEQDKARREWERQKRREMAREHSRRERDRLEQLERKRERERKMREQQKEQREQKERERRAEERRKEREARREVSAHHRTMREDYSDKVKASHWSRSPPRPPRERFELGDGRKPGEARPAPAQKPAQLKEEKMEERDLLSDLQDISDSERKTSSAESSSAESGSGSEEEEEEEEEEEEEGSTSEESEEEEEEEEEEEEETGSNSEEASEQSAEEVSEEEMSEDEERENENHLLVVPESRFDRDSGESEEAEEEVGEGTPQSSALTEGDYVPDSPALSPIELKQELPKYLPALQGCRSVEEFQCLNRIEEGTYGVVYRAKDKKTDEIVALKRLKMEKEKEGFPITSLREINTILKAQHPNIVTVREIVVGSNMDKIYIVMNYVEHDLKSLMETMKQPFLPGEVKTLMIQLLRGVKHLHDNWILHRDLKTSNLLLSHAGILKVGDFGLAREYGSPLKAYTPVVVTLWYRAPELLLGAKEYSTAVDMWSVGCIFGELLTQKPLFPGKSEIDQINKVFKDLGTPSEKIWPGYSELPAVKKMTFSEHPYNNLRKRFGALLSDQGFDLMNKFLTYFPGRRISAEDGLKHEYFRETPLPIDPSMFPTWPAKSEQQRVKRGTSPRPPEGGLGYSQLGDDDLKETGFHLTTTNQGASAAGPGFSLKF
# Sequence of UniProt O15197 (whole entry, looked up): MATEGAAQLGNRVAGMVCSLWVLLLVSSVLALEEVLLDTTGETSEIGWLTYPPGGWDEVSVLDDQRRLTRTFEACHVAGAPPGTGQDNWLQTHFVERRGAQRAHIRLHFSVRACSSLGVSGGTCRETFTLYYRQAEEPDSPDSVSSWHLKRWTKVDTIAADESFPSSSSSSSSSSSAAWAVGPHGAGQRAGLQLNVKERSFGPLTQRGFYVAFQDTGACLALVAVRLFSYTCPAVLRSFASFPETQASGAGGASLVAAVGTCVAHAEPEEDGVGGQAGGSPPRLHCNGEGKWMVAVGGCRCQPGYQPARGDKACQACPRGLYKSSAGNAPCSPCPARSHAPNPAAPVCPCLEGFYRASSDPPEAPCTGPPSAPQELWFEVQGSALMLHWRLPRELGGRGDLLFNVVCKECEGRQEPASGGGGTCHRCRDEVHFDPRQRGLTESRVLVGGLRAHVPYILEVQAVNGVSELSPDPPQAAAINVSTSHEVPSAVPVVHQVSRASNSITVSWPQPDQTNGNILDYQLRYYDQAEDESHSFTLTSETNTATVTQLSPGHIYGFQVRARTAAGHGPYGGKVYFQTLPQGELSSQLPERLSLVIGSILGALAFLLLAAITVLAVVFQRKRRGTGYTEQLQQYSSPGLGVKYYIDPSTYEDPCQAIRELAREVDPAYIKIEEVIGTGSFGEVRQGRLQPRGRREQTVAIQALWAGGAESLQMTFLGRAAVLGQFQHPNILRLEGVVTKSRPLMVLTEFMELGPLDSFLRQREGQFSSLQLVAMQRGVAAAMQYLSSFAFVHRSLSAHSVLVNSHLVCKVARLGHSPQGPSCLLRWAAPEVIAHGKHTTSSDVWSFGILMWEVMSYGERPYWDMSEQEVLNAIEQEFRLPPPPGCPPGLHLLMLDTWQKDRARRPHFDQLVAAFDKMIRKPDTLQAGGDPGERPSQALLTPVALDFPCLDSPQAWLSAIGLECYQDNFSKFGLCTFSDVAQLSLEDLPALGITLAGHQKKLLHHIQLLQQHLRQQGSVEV
# Sequence of UniProt O75582 (whole entry, looked up): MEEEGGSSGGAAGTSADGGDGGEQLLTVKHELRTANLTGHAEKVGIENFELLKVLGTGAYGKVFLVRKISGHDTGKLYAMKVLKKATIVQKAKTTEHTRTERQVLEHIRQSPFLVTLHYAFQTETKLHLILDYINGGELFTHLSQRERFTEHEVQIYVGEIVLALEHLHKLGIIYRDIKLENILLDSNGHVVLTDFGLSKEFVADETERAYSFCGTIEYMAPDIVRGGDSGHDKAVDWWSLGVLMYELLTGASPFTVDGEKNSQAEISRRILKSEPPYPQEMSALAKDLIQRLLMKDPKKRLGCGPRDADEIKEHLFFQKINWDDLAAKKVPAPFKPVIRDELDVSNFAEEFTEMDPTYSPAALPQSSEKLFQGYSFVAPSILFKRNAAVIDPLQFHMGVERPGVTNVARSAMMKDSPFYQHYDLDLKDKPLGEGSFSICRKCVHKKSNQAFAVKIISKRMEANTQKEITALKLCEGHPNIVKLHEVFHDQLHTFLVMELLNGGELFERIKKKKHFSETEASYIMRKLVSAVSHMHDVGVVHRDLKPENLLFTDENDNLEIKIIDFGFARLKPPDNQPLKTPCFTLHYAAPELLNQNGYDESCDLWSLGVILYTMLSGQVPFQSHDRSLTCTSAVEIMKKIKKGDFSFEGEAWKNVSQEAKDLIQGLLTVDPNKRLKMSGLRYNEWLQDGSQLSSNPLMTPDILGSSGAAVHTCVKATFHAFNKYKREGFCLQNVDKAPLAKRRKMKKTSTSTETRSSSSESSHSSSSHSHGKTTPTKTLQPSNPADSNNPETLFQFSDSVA

# Block 1
# Species: mouse
# Medium: microsomes or S9
# Concentration: 2 µM
# Time: 0.5 h
SMILES,remaining compound [%]
COC(=O)CC(c1cc(Cl)c2c(c1)OCO2)c1c(O)cc(C)[nH]c1=O (centres unmarked),0
Oc1ccc2c(c1)oc1c(C3=Cc4ccccc4OC3)c3c[nH]nc3nc12,28
CC(C)(C)c1ccc(Cn2ncc3ccccc32)cc1,0.00805
Cc1cc(C)nc(SCc2nc3scc(C)n3c2Br)n1,0.0444
O=c1ccc(-n2ccnc2)nn1CC(O)COc1ccc(Oc2ccccc2)cc1 (centres unmarked),45.9

# Block 2
# Structure (SMILES): O=C1NC(c2ccccn2)Sc2ccccc21 (centres unmarked)
# Observed: cell-free assay
# Technique: competition with immobilised ligand
# Concentration: 1 µM
target,remaining binding [%]
"Cyclin-dependent kinase 11B (CDK11B, Homo sapiens, UniProt P21127)",100
"Ribosomal protein S6 kinase alpha-5, C-terminal kinase domain (RPS6KA5, Homo sapiens, UniProt O75582)",87
"Phosphatidylinositol 4,5-bisphosphate 3-kinase catalytic subunit beta isoform (PIK3CB, Homo sapiens, UniProt P42338)",100
"Ephrin type-B receptor 6 (EPHB6, Homo sapiens, UniProt O15197)",78

# Block 3
# Target: Dual specificity mitogen-activated protein kinase kinase 6 (MAP2K6, Homo sapiens, UniProt P52564)
# Observed: enzyme activity
# Action: inhibitor
# Concentration: 0.5 µM
# Baseline: control
# Construct (P52564 1-334): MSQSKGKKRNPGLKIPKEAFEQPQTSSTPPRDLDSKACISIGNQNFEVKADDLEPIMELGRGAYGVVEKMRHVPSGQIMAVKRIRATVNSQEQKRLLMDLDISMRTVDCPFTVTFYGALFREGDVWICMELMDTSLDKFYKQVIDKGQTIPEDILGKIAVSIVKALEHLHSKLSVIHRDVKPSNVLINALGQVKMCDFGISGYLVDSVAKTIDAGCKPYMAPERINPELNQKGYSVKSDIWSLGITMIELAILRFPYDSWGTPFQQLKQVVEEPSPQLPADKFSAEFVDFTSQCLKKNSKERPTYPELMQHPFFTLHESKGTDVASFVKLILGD
Structure (SMILES),remaining activity
O=c1c2ccccc2[nH]c(=S)n1CCN1CCC(=C(c2ccc(F)cc2)c2ccc(F)cc2)CC1,102%
CC(C)[C@H](CO)Nc1nc(Nc2cc(N)cc(Cl)c2)c2ncn(C(C)C)c2n1,92.5%
OCC(O)CCON=C1C(c2c(O)[nH]c3ccccc23)=Nc2ccccc21 (centres unmarked),79.7%
COc1ccc(CNC(=O)Nc2ncc([N+](=O)[O-])s2)cc1,85.9%
N#CC(C#N)=C(N)/C(C#N)=C/c1ccc(O)cc1,94%
O=C1NC(=O)C(c2cn(CCCO)c3ncccc23)=C1c1cnccn1,91.1%
O=C(Nc1cccc(Nc2cc(Nc3cccc(C(F)(F)F)c3)ncn2)c1)C1CC1,108%
C#Cc1cccc(Nc2ncnc3cc(OCCOC)c(OCCOC)cc23)c1,94.2%
CN(C)c1ccc(C=C2C(=O)Nc3ccccc32)cc1,94.7%
COc1ccc(C(=O)Nc2sc3c(c2C(N)=O)CCCC3)cc1OC,114%
Cc1ccc(Nc2nccc(N(C)c3ccc4c(C)n(C)nc4c3)n2)cc1S(N)(=O)=O,98.3%
Oc1ccc(-c2nc(-c3ccncc3)c(-c3ccc(F)cc3)[nH]2)cc1,109%
COc1cc2ncnc(Nc3ccc(Oc4ccccc4)cc3)c2cc1OC,102%

# Block 4
# Structure (SMILES): Cn1cnc(Cn2ccc3ccc(CNCc4[nH]c5ccccc5c4[C@H]4NC(=O)c5ccc(O)cc54)cc32)c1
# Observed: target engagement
# Technique: BRET
# KRAS G12C: GTPase KRas (KRAS, Homo sapiens, UniProt P01116, G12C)
target,cells,time,IC50
KRAS G12C,HEK293,1 h,0.87 µM
"GTPase KRas (KRAS, Homo sapiens, UniProt P01116)",HEK293 cells,,0.76 µM
KRAS G12C,HEK293,0.5 h,1.2 µM

# Mixed results
Compound,species,dose,time,endpoint,result
CN(N=O)C(=O)N[C@@H]1[C@@H](O)[C@H](O)[C@@H](CO)O[C@@H]1O,"mice, STZ diabetic neuropathy",dose not given,7 days after STZ,blood glucose,528 mg/dL and 378 mg/dL and 469 mg/dL and 399 mg/dL and 547 mg/dL

# A few entries again (block 3):
Structure (SMILES),remaining activity
N#CC(C#N)=C(N)/C(C#N)=C/c1ccc(O)cc1,94%
O=C1NC(=O)C(c2cn(CCCO)c3ncccc23)=C1c1cnccn1,91.1%
O=C(Nc1cccc(Nc2cc(Nc3cccc(C(F)(F)F)c3)ncn2)c1)C1CC1,108%
